Results collected from several papers.
Numbered parts are unrelated; each lists some results of a single study. Several values in a cell are separate wells, animals, samples, runs or records.
Sequence of UniProt P16591 (whole entry, looked up): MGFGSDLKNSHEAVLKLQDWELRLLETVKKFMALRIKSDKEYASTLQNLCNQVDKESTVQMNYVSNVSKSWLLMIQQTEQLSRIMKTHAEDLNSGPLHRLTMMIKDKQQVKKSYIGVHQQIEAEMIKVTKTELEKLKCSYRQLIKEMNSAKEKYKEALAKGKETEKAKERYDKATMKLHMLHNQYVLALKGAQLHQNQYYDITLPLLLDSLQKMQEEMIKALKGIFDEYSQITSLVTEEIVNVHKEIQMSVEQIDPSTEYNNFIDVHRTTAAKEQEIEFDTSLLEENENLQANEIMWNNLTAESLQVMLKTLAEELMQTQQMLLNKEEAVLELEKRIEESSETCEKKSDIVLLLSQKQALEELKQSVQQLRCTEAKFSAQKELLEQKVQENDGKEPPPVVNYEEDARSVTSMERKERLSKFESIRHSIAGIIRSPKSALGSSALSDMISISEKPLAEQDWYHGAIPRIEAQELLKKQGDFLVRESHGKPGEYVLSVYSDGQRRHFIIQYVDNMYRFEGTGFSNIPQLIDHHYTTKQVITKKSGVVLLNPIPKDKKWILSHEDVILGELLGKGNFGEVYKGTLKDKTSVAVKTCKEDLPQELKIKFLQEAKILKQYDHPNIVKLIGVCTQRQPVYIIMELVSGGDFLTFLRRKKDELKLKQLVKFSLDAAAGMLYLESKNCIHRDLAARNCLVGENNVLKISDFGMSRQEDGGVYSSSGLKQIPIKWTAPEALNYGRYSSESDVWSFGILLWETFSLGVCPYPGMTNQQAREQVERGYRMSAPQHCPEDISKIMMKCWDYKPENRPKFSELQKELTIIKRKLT
Sequence of UniProt Q16512 (whole entry, looked up): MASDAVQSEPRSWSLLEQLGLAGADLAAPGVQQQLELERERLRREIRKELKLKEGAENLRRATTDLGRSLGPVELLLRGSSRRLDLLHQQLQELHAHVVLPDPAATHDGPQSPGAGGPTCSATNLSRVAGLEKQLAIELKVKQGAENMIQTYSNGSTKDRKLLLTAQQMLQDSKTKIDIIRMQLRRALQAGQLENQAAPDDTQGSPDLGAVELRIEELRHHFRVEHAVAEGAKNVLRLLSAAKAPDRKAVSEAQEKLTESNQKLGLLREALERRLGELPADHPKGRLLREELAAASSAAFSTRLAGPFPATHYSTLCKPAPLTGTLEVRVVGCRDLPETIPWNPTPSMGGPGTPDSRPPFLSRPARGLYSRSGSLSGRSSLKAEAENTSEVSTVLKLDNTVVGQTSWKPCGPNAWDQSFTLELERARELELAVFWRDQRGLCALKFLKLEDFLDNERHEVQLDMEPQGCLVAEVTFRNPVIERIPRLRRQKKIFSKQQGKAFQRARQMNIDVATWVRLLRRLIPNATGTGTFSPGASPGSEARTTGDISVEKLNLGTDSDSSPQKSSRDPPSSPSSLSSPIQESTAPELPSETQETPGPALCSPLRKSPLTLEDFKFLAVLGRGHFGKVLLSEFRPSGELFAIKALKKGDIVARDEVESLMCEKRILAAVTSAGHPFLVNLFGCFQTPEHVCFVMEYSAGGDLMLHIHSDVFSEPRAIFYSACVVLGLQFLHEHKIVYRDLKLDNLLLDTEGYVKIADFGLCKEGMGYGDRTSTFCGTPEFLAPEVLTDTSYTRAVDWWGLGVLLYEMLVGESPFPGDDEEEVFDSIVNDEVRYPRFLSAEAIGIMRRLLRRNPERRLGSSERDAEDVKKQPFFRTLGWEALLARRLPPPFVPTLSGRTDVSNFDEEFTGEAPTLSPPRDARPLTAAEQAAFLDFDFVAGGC
Sequence of UniProt P68400 (whole entry, looked up): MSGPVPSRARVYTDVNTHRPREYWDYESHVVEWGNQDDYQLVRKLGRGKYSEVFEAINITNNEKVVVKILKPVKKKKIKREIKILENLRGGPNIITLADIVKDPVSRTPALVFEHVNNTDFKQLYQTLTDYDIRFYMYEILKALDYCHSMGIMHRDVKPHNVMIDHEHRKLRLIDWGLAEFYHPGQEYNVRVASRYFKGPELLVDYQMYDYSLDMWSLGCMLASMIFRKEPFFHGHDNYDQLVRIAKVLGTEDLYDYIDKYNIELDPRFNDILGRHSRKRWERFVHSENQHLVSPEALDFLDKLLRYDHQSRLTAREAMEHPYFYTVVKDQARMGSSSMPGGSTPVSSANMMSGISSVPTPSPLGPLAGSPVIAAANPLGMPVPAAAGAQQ
Sequence of UniProt P35916 (whole entry, looked up): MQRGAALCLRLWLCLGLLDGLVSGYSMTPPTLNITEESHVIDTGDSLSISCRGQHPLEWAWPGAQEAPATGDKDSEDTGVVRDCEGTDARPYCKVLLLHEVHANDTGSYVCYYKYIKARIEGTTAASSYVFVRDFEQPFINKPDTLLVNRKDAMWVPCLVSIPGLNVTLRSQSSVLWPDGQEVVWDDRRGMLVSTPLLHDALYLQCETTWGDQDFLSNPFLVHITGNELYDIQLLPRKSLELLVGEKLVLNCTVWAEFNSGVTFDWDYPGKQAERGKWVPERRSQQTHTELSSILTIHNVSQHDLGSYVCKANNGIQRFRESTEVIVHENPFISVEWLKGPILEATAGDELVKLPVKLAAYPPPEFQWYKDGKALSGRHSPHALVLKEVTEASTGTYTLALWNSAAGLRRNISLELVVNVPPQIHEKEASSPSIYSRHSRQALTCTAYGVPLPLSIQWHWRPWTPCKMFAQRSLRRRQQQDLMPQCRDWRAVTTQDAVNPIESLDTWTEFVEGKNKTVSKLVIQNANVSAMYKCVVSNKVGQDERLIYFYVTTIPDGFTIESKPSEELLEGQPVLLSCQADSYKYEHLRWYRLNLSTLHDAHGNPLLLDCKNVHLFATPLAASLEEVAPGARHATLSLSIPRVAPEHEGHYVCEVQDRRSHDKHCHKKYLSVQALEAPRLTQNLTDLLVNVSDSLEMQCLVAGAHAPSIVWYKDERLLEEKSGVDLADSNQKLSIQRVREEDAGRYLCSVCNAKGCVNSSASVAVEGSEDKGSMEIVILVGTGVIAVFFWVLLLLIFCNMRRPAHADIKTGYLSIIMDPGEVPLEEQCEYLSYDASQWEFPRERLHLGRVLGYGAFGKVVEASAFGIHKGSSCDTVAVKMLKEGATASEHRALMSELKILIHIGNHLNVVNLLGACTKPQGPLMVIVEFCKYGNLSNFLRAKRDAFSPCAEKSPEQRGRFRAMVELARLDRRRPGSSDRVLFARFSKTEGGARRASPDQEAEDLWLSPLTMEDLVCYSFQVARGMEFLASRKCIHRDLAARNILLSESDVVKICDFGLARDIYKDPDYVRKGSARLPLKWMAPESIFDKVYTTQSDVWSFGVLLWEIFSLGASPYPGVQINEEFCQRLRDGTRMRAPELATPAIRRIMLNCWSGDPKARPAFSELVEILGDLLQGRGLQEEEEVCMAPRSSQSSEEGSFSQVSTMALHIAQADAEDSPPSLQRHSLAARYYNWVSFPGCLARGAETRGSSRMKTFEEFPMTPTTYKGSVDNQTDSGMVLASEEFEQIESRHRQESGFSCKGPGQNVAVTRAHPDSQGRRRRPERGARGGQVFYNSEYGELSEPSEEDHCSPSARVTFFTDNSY
Sequence of UniProt P06241 (whole entry, looked up): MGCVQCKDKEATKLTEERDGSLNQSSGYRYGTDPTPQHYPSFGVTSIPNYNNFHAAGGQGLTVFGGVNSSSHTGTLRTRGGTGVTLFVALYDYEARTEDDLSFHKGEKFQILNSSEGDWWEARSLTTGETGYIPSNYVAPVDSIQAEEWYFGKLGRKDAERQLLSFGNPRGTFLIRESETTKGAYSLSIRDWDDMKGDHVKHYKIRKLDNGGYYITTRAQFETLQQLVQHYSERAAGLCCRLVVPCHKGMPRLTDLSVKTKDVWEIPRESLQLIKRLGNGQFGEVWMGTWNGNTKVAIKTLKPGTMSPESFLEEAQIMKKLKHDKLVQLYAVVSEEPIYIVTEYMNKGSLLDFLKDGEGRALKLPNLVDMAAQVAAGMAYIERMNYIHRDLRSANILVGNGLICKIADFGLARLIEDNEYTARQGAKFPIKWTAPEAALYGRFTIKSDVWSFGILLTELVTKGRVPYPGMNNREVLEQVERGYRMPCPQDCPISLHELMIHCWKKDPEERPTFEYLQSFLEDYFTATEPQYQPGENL
Sequence of UniProt O75460 (whole entry, looked up): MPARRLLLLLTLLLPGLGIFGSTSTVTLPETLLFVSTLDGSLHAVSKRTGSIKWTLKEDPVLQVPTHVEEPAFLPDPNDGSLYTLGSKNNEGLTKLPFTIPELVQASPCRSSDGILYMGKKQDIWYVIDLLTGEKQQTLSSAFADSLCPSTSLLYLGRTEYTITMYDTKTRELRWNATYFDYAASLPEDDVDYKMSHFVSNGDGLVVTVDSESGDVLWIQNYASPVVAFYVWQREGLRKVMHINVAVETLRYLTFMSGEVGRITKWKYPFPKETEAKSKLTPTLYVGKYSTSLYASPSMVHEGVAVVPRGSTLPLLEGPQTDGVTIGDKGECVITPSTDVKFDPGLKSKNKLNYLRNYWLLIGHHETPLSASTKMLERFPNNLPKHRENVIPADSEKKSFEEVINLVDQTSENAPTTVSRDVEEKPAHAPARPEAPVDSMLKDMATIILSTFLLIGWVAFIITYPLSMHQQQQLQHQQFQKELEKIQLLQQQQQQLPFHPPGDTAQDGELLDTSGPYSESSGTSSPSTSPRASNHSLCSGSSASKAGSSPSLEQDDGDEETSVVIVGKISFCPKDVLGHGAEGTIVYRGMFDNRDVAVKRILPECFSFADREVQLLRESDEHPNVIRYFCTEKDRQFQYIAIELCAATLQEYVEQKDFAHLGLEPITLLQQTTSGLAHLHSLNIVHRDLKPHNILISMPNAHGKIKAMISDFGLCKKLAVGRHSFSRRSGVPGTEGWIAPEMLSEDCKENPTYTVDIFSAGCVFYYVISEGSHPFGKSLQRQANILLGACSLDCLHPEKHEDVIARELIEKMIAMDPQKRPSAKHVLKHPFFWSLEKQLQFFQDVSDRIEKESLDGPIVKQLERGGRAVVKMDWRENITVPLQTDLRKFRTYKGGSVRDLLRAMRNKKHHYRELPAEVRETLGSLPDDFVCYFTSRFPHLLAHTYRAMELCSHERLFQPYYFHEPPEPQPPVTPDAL

Sample 1
Structure (SMILES): CCOc1cc2ncnc(Nc3cccc(Br)c3)c2cc1OCC
Effect on: enzyme activity
Mode: inhibitor
Concentration: 0.5 µM
Baseline: control
target	remaining activity
Serine/threonine-protein kinase NLK (NLK, Homo sapiens, UniProt Q9UBE8)	95.9%
Tyrosine-protein kinase ITK/TSK (ITK, Homo sapiens, UniProt Q08881)	104%
Proto-oncogene tyrosine-protein kinase Src (SRC, Homo sapiens, UniProt P12931)	74.8%
PAS domain-containing serine/threonine-protein kinase (PASK, Homo sapiens, UniProt Q96RG2)	92.3%
Insulin receptor (INSR, Homo sapiens, UniProt P06213)	98.7%
RAC-alpha serine/threonine-protein kinase (AKT1, Homo sapiens, UniProt P31749)	112%
Serine/threonine-protein kinase MRCK alpha (CDC42BPA, Homo sapiens, UniProt Q5VT25)	85.4%
Megakaryocyte-associated tyrosine-protein kinase (MATK, Homo sapiens, UniProt P42679)	90.5%
Serine/threonine-protein kinase N1 (PKN1, Homo sapiens, UniProt Q16512)	100%
Tyrosine-protein kinase Fyn (FYN, Homo sapiens, UniProt P06241)	78.9%
Homeodomain-interacting protein kinase 1 (HIPK1, Homo sapiens, UniProt Q86Z02)	104%
ALK tyrosine kinase receptor (ALK, Homo sapiens, UniProt Q9UM73)	85.8%
Serine/threonine-protein kinase TAO3 (TAOK3, Homo sapiens, UniProt Q9H2K8)	96.2%
Serine/threonine-protein kinase Nek11 (NEK11, Homo sapiens, UniProt Q8NG66)	103%
LIM domain kinase 1 (LIMK1, Homo sapiens, UniProt P53667)	101%
Cyclin-dependent kinase 3, with cyclin E (CDK3, Homo sapiens, UniProt Q00526)	95.2%
MAP/microtubule affinity-regulating kinase 3 (MARK3, Homo sapiens, UniProt P27448)	98.8%
Vascular endothelial growth factor receptor 3 (FLT4, Homo sapiens, UniProt P35916)	88.1%
Tyrosine-protein kinase Fer (FER, Homo sapiens, UniProt P16591)	90.7%
cAMP-dependent protein kinase catalytic subunit PRKX (PRKX, Homo sapiens, UniProt P51817)	99.8%
Tyrosine-protein kinase Fgr (FGR, Homo sapiens, UniProt P09769)	61.9%
Serine/threonine-protein kinase 25 (STK25, Homo sapiens, UniProt O00506)	90.1%

Sample 2
Compound: COc1ccc2c(c1)O[C@H](c1ccc(OC)c(OC)c1)C[C@@H]2NC(=O)C1(c2ccc3c(c2)OC(F)(F)O3)CC1
Effect on: cell-free assay
Technique: competition with immobilised ligand
Concentration: 1 µM
target	remaining binding
Macrophage colony-stimulating factor 1 receptor (CSF1R, Homo sapiens, UniProt P07333)	100%
Serine/threonine-protein kinase LATS1 (LATS1, Homo sapiens, UniProt O95835)	65%
Epidermal growth factor receptor (EGFR, Homo sapiens, UniProt P00533, del747-750/T751S)	100%
Interleukin-1 receptor-associated kinase 3 (IRAK3, Homo sapiens, UniProt Q9Y616)	86%
Casein kinase II subunit alpha (CSNK2A1, Homo sapiens, UniProt P68400)	100%
Serine/threonine-protein kinase Sgk1 (SGK1, Homo sapiens, UniProt O00141)	100%
Cyclin-dependent kinase 15 (CDK15, Homo sapiens, UniProt Q96Q40)	100%
Inhibitor of nuclear factor kappa-B kinase subunit beta (IKBKB, Homo sapiens, UniProt O14920)	97%
Rho-associated protein kinase 1 (ROCK1, Homo sapiens, UniProt Q13464)	84%
Phosphatidylinositol 4-phosphate 5-kinase type-1 alpha (PIP5K1A, Homo sapiens, UniProt Q99755)	84%
Serine/threonine-protein kinase/endoribonuclease IRE1 (ERN1, Homo sapiens, UniProt O75460)	100%
Aurora kinase B (AURKB, Homo sapiens, UniProt Q96GD4)	98%
Mitogen-activated protein kinase kinase kinase 3 (MAP3K3, Homo sapiens, UniProt Q99759)	87%
Activin receptor type-1B (ACVR1B, Homo sapiens, UniProt P36896)	82%
Muscle, skeletal receptor tyrosine-protein kinase (MUSK, Homo sapiens, UniProt O15146)	100%

Sample 3
Compound: CC(=O)N[C@@H](Cc1c[nH]c2ccccc12)C(=O)N[C@@H](CCC(=O)C=[N+]=[N-])C(=O)OC(C)C
Species: C57BL/6 CES1-/- mice, MC-38 tumour
Dose: dose not given
Together with: anti-PD-1
Baseline: initial
time	body weight
day 40 after inoculation	96% and 98.2% and 94% and 101% and 93.9% and 99.3%
day 91 after inoculation	110% and 109%
day 53 after inoculation	93.7% and 90.3% and 75.2% and 102% and 97.5% and 100%
day 80 after inoculation	100% and 104%
day 11 after inoculation	101% and 104% and 102% and 106%
day 63 after inoculation	101% and 104% and 95.5% and 98.7%
day 12 after inoculation	97.3% and 99.3% and 98.6% and 100% and 99.6% and 97.5% and 97.4%

Sample 4
SMILES: C[C@@H]1[C@H](O)[C@@H](C)/C=C/C=C/C=C/C=C/C=C/C=C/C=C/[C@H](O[C@@H]2O[C@H](C)[C@@H](O)[C@H](N)[C@@H]2O)C[C@@H]2O[C@](O)(C[C@@H](O)C[C@@H](O)[C@H](O)CC[C@@H](O)C[C@@H](O)CC(=O)O[C@H]1C)C[C@H](O)[C@H]2C(=O)O
Organism: Leishmania donovani
Strain: DD8
Matrix: promastigotes
concentration	time	promastigote number
30 µM	48 h	4.33e+06 and 4.35e+06
160 µM	48 h	1.55e+06 and 1.57e+06
330 µM	72 h	98500 and 58400
3330 µM	48 h	51500
16660 µM	48 h	1550 and 1560
160 µM	72 h	2.03e+06 and 2.06e+06
1660 µM	72 h	54800 and 78500
60 µM	72 h	4.45e+06 and 4.56e+06

For quick reference, copied from above (sample 2):
target	remaining binding
Serine/threonine-protein kinase LATS1 (LATS1, Homo sapiens, UniProt O95835)	65%
Epidermal growth factor receptor (EGFR, Homo sapiens, UniProt P00533, del747-750/T751S)	100%
Interleukin-1 receptor-associated kinase 3 (IRAK3, Homo sapiens, UniProt Q9Y616)	86%
Casein kinase II subunit alpha (CSNK2A1, Homo sapiens, UniProt P68400)	100%
Serine/threonine-protein kinase Sgk1 (SGK1, Homo sapiens, UniProt O00141)	100%
Cyclin-dependent kinase 15 (CDK15, Homo sapiens, UniProt Q96Q40)	100%
Inhibitor of nuclear factor kappa-B kinase subunit beta (IKBKB, Homo sapiens, UniProt O14920)	97%
